Experimental data from different studies.
Each line is one published result; not all experiments were run side by side. “And” joins repeats or separate records; there may be more than shown. Numbers after ± are the reported error.
PRKCH: Protein kinase C eta type (PRKCH, Homo sapiens, UniProt P24723)
Chain of UniProt Q16774 (whole entry, looked up): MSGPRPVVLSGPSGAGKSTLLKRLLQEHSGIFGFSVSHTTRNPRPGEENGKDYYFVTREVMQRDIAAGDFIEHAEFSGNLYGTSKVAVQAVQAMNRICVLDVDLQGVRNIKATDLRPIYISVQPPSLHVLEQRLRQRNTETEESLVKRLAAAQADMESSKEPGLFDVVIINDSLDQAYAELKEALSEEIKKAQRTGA
Chain of UniProt P24723 (whole entry, looked up): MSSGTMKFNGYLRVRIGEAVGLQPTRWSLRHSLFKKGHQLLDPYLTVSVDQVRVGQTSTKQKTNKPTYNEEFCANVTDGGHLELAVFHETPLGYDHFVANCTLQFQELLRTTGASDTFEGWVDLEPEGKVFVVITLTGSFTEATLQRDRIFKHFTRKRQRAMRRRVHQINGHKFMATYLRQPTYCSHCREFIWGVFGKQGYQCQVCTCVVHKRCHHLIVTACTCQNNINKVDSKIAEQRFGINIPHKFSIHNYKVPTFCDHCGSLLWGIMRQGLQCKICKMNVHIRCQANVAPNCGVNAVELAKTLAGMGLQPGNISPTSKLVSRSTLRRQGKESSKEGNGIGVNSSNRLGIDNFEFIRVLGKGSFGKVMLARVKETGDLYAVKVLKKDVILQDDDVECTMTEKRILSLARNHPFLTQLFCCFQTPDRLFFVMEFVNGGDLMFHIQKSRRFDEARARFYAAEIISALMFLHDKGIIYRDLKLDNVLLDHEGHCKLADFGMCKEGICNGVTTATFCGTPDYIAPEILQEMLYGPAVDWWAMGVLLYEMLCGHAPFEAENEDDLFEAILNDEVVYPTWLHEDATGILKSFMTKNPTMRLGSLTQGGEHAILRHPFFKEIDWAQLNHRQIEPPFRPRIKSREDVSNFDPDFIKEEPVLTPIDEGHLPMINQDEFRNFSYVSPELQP
Chain of UniProt Q99640 (whole entry, looked up): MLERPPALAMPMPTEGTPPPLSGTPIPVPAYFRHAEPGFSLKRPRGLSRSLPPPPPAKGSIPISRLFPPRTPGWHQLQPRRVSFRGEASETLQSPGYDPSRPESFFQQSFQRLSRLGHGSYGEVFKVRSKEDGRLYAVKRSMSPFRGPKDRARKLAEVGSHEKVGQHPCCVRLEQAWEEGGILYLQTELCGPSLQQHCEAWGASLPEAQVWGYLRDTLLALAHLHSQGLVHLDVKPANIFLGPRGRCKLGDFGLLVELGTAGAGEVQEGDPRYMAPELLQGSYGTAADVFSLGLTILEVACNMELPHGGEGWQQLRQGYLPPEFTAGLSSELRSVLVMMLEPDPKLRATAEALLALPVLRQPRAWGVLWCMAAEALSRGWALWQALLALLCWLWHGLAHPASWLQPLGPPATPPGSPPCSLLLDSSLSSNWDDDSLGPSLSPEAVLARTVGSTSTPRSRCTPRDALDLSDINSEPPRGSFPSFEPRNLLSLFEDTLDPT
Chain of UniProt Q01959 (whole entry, looked up): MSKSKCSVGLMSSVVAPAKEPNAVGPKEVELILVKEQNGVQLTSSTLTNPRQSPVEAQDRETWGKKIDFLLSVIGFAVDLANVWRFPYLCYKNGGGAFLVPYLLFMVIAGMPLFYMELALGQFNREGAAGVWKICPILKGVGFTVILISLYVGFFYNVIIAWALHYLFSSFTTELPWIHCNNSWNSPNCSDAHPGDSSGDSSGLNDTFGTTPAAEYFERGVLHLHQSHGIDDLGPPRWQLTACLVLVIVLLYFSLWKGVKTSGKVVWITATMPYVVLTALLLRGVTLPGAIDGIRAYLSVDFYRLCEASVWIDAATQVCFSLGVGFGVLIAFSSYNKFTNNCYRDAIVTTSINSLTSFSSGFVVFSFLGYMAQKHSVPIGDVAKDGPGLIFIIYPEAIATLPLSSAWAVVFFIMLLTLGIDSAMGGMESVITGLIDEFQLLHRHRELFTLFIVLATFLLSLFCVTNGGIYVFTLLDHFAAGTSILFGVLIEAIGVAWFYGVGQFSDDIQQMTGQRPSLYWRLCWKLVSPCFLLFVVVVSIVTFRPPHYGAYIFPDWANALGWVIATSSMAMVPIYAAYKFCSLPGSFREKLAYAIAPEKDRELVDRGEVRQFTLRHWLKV
Chain of UniProt Q8WTQ7 (whole entry, looked up): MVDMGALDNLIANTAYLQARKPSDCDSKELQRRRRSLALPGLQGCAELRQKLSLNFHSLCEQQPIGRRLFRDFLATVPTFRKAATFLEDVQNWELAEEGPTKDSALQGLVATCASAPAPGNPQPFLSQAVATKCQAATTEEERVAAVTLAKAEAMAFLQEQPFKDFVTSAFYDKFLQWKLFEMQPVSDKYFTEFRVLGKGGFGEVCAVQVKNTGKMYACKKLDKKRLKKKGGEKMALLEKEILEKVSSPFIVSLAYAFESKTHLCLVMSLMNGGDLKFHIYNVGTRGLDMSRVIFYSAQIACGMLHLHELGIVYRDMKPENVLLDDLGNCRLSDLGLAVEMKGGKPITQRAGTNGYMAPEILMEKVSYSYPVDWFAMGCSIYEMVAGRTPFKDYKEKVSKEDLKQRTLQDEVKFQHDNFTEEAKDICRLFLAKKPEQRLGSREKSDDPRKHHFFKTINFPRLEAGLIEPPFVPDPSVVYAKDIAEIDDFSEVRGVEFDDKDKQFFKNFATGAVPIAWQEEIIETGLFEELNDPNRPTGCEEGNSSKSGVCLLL
Chain of UniProt P06213 (whole entry, looked up): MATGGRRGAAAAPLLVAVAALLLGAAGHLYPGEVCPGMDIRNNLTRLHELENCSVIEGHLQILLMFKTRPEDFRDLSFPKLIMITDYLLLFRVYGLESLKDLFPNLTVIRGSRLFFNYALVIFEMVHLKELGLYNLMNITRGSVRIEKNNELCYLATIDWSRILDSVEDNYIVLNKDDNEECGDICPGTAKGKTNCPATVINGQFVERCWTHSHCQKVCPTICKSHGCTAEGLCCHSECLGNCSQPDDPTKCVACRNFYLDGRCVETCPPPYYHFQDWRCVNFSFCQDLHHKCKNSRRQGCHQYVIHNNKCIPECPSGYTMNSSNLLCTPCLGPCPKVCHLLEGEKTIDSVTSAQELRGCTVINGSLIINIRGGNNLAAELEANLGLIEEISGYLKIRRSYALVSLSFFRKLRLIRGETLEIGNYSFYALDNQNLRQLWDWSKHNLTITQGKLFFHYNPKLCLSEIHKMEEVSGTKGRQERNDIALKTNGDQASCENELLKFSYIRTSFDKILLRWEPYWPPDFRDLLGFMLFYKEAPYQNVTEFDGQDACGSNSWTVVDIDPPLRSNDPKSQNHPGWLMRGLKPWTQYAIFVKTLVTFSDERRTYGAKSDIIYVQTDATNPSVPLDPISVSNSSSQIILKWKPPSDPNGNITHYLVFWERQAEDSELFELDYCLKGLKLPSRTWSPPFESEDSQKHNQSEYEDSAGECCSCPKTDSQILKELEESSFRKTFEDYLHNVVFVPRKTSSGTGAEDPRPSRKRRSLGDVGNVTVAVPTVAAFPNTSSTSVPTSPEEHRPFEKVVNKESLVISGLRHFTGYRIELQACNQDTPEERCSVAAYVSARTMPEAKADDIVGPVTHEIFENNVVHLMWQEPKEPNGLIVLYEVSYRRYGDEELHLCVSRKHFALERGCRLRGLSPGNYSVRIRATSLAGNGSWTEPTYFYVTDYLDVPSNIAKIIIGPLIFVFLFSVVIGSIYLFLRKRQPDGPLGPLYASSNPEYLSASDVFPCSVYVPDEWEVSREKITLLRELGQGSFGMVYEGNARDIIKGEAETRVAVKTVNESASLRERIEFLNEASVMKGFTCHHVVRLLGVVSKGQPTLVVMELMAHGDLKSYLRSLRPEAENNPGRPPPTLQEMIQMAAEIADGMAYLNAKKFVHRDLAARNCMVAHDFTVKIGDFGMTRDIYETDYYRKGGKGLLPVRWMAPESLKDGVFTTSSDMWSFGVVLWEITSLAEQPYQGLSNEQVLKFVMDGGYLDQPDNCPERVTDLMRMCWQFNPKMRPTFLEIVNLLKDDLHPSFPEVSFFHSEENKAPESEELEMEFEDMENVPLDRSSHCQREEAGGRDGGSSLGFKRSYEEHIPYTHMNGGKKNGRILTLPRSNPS
Chain of UniProt Q06418 (whole entry, looked up): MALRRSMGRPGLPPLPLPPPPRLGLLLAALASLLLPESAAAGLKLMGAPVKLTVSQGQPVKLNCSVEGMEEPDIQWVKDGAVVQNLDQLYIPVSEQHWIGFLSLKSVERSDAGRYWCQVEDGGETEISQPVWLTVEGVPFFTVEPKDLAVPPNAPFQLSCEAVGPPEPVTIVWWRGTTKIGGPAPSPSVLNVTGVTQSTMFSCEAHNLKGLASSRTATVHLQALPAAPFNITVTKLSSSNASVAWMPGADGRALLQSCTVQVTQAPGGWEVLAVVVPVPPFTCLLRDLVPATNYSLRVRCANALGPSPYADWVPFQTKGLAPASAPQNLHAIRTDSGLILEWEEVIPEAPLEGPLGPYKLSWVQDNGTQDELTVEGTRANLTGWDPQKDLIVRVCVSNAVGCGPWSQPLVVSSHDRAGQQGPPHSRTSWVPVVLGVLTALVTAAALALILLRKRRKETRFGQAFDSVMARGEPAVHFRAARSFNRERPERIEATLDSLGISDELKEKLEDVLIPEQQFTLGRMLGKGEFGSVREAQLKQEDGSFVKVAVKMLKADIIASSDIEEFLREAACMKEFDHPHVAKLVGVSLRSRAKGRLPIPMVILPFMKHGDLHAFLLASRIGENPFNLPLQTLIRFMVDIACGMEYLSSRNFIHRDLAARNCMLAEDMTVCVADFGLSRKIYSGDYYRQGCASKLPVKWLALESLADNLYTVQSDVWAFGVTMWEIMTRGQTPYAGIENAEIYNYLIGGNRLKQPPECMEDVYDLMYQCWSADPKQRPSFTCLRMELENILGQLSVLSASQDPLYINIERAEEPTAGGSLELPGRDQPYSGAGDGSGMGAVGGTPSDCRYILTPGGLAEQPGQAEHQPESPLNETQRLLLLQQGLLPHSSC

C=CC(=O)N1CCC[C@@H](n2nc(-c3ccc(Oc4ccccc4)cc3)c3c(N)ncnc32)C1  remaining activity (Insulin receptor (INSR, Homo sapiens, UniProt P06213); 0.1 µM): 160%
COc1cc(Nc2ncc3c(n2)-c2ccc(Cl)cc2C(c2c(F)cccc2OC)=NC3)ccc1C(=O)O  remaining activity (Aurora A; inhibitor, biochemical kinase; 1 µM): 0%
O=C(NC1CCC1)c1ccc2nc(-c3cccc(NS(=O)(=O)NCCN4CCCCC4)c3)cn2c1  remaining activity (PKMYT1 (Homo sapiens, UniProt Q99640); enzyme activity; 10 µM): 83%
CNc1ncc2c(/C=C/C(=O)N3CCC(OC)CC3)nn(Cc3cccc(C(F)(F)F)c3)c2n1  remaining activity (PRKCH; kinase activity, inhibitor; 1 µM; relative to: untreated control): 109%
Cn1cc(-c2ccc(-c3cncc(Cl)c3N3CCC4(CCNC4=O)CC3)cc2)cn1  log2 fold change (COLO 205; gene expression, microarray, refers to: SGK1 mRNA; concentration not given, 2 h; relative to: untreated cells): 6.67
CC(C)C[C@H](NC(=O)C[C@H](O)[C@H](CC(C)C)NC(=O)[C@H](Cc1c[nH]cn1)NC(=O)CNC(=O)[C@@H](NC(=O)[C@H](C)NC(=O)[C@H](Cc1c[nH]c2ccccc12)NC(=O)[C@H](CCC(N)=O)NC(=O)[C@@H](Cc1ccccc1)NC(=O)COCCOCCNC(=O)CCC(C(=O)O)N1CCN(CC(=O)O)CCN(CC(=O)O)CCN(CC(=O)O)CC1)C(C)C)C(N)=O (stereo partly drawn) [lutetium-177 labelled]  tissue uptake (BALB/c nu/nu mice, large intestine; 50 pmol, 1 h, added: PA 300 µg): 1.7 ± 0.4 %ID/g
O=C(O)c1ccc(Nc2ncc3c(n2)-c2ccc(Cl)cc2C(c2c(F)cccc2F)=NC3)cc1  remaining activity (Abl(h); kinase activity; 1 µM): 24%
COc1cc(-c2cncc3c2CN(C)Cc2cc(N4CCNCC4)ccc2-3)cc(OC)c1OC  remaining activity (GRK7 (Homo sapiens, UniProt Q8WTQ7); kinase activity; 1 µM, human enzyme, added: ATP 10 µM; relative to: DMSO control): 102%
N[C@@H]1CC[C@@H](c2ccc(Cl)c(Cl)c2)c2ccccc21  remaining activity (SLC6A3 (Homo sapiens, UniProt Q01959); dopamine uptake; 0.002 µM, 0.03333 h, added: [3H]dopamine; relative to: no inhibitor): 11.2%
CCc1cc(C(=O)NC)c2nccc(N3CCc4c(cc(Cn5ccnc5)cc4-c4cn(C)nc4C(F)(F)F)C3=O)c2c1  gastrocnemius weight (Sprague Dawley rats; oral, 100 mg/kg once daily, 7 days): 2.93 ± 0.063 g
Nc1nc2c(ncn2[C@@H]2O[C@H](COP(=O)(O)O)[C@@H](O)[C@H]2O)c(=O)[nH]1  reaction velocity (GUK1 (Homo sapiens, UniProt Q16774); enzyme activity, NADH-coupled; 500 µM, added: NaCl 150 mM): 0.0862 µM/s and 0.0882 µM/s and 0.0702 µM/s
COc1cc(F)ccc1-c1ncnc(Nc2cccc(C[S@](C)(=N)=O)c2)n1  remaining activity (PRKCH; kinase activity; 10 µM, added: 10 µM ATP): 110%
Cc1c(-c2ccc(N3CCc4cccc(C(=O)Nc5nc6ccccc6s5)c4C3)nc2C(=O)O)cnn1CC12CC3(C)CC(C)(C1)CC(OCCNCC[C@H](O)CO)(C3)C2  dP/dt at 50 change (beagle dog, male, anaesthetised; intravenous infusion, 0.3 mg/kg/min, 15 min; relative to: vehicle): 1%
Cc1cc(Nc2cc(N3CCN(C)CC3)nc(Sc3ccc(NC(=O)C4CC4)cc3)n2)[nH]n1  remaining activity (TYRO3 (Homo sapiens, UniProt Q06418); kinase activity, KinaseProfiler; 0.03 µM, species human; relative to: control): 109%
COc1cc(N2CCN(C)CC2)ccc1Nc1nc(N)n(C(=S)NCc2c(Cl)cccc2Cl)n1  remaining activity (MARK3 (Homo sapiens, UniProt P27448); enzyme activity; 10 µM; relative to: control): 1.4%

Repeated from above:
COc1cc(F)ccc1-c1ncnc(Nc2cccc(C[S@](C)(=N)=O)c2)n1  remaining activity (PRKCH; kinase activity; 10 µM, added: 10 µM ATP): 110%
Cc1c(-c2ccc(N3CCc4cccc(C(=O)Nc5nc6ccccc6s5)c4C3)nc2C(=O)O)cnn1CC12CC3(C)CC(C)(C1)CC(OCCNCC[C@H](O)CO)(C3)C2  dP/dt at 50 change (beagle dog, male, anaesthetised; intravenous infusion, 0.3 mg/kg/min, 15 min; relative to: vehicle): 1%
